Results of several laboratories.
Compare with care: the assays were run in different laboratories.
EGFR del752-759: Epidermal growth factor receptor (EGFR, Homo sapiens, UniProt P00533, del752-759)
EGFR del746-750: Epidermal growth factor receptor (EGFR, Homo sapiens, UniProt P00533, del746-750)
EGFR L858R: Epidermal growth factor receptor (EGFR, Homo sapiens, UniProt P00533, L858R)

| Compound | target | test | test system | conditions | scale | quantity | result |
| --- | --- | --- | --- | --- | --- | --- | --- |
| CC(C)Oc1cc(N2CCN(C)CC2)ccc1Nc1nc(N)n(C(=O)NCc2ccccc2S(=O)(=O)C(C)C)n1 | EGFR del752-759 | enzyme activity | – | 10 µM | baseline: control | remaining activity | 27% |
| [2H]c1cc(C)c(NC(=O)c2cnc(Nc3cc(N4CCCCC4)nc(C)n3)s2)c(Cl)c1 | EGFR del746-750 | – | – | 0.01 µM | – | inhibition | < 30% |
| COc1ccc(-c2nn(-c3ccc(S(C)(=O)=O)cc3)cc2C=N/N=c2\[nH]c(-c3ccc([N+](=O)[O-])cc3)cs2)cc1 | EGFR L858R | kinase activity, inhibitor | – | 0.01 µM | – | inhibition | 35.3% |
| COc1cc(N2CCN(C)CC2)ccc1Nc1nc(N)n(C(=O)NCc2c(Cl)cccc2Cl)n1 | EGFR L858R | enzyme activity | – | 10 µM | baseline: control | remaining activity | 7.4% |
| COc1cc2ncnc(Nc3ccc(F)c(Cl)c3)c2cc1OCCCN1CCN(C(=O)CCCCCCCCCCNC(=O)C[C@H](NC(=O)[C@@H]2C[C@@H](O)CN2C(=O)[C@@H](c2cc(C)no2)C(C)C)c2ccc(-c3scnc3C)cc2)CC1 | EGFR del746-750 | protein degradation, degrader, western blot | HCC827 | 100 nM | – | time to significant reduction | ≤ 4 h |
| O=C(NC1CCC1)c1ccc2nc(-c3cccc(NS(=O)(=O)NCCN4CCCCC4)c3)cn2c1 | EGFR del746-750 | enzyme activity | – | 10 µM | – | remaining activity | 80% |
| CC(C)Cc1ccc(-c2nn(-c3ccc(S(C)(=O)=O)cc3)cc2/C=N/N=c2\[nH]c(-c3ccc([N+](=O)[O-])cc3)cs2)cc1 | EGFR L858R | kinase activity, inhibitor | – | 10 µM | – | inhibition | 88% |
| C=CC(=O)N1CCC(COCC(=O)N2CCN(c3nc(-c4cnc(N)nc4C(F)F)nc(N4CCOC[C@@H]4C)n3)CC2)CC1 | EGFR del746-750 | KINOMEscan | – | 1 µM | baseline: DMSO control | remaining binding | 100% |
| COc1ccc(-c2nn(-c3ccc(S(C)(=O)=O)cc3)cc2/C=N/N=c2\[nH]c(-c3ccc(Br)cc3)cs2)cc1 | EGFR L858R | kinase activity, inhibitor | – | 0.01 µM | – | inhibition | 41% |
| COc1cc(N2CCN(C)CC2)ccc1Nc1nc(N)n(C(=O)NCc2ccccc2S(=O)(=O)C(C)C)n1 | EGFR del746-750 | enzyme activity | – | 10 µM | baseline: control | remaining activity | 14% |
| C[C@@H](c1ccc(-n2cnc3c(N)ncnc32)cc1)N1CCc2nn(C)c(Cc3ccccc3)c2C1=O | EGFR del752-759 | KINOMEscan | – | 0.1 µM | baseline: DMSO control | remaining binding | 89% |
| COc1cc(N2CCN(C)CC2)ccc1Nc1nc(N)n(C(=S)NCc2c(Cl)cccc2Cl)n1 | EGFR L858R | enzyme activity | – | 10 µM | baseline: control | remaining activity | 0.6% |
| C=CC(=O)N1CCC(C(=O)NCC(=O)N2CCN(c3nc(-c4cnc(N)nc4C(F)F)nc(N4CCOCC4)n3)CC2)CC1 | EGFR (Homo sapiens, UniProt P00533, del747-752/P753S) | KINOMEscan | – | 1 µM | – | remaining binding | 82% |

For quick reference, copied from above:
| Compound | target | test | test system | conditions | scale | quantity | result |
| --- | --- | --- | --- | --- | --- | --- | --- |
| COc1cc2ncnc(Nc3ccc(F)c(Cl)c3)c2cc1OCCCN1CCN(C(=O)CCCCCCCCCCNC(=O)C[C@H](NC(=O)[C@@H]2C[C@@H](O)CN2C(=O)[C@@H](c2cc(C)no2)C(C)C)c2ccc(-c3scnc3C)cc2)CC1 | EGFR del746-750 | protein degradation, degrader, western blot | HCC827 | 100 nM | – | time to significant reduction | ≤ 4 h |
| O=C(NC1CCC1)c1ccc2nc(-c3cccc(NS(=O)(=O)NCCN4CCCCC4)c3)cn2c1 | EGFR del746-750 | enzyme activity | – | 10 µM | – | remaining activity | 80% |
